Measured values collected from several papers.
Compare with care: the assays were run in different laboratories. “And” joins repeats or separate records; there may be more than shown.
Target: 3',5'-cyclic-AMP phosphodiesterase 4D (PDE4D, Homo sapiens, UniProt Q08499)

Compound | assay | setting | scale | endpoint | value
C/C(=N\OCCCN1CCCCC1)c1ccc(C(F)(F)F)cc1 | antagonist, FP | 10 µM | – | inhibition | 4.44%
CCc1nnc(-c2c(OC)cc(-c3cnc4cc(-c5cnn(C)c5)ccn34)cc2OC)o1 | – | 10 µM | – | inhibition of specific binding | 64%
CCCO[C@H]1[C@H](O)[C@@H](N)[C@@H](O[C@H]2[C@H](O[C@@H]3O[C@H](CO)[C@@H](O[C@H]4O[C@@H](CN)[C@@H](O)[C@H](O)[C@H]4N)[C@H]3O)[C@@H](O)[C@H](N)C[C@@H]2N)O[C@@H]1CO | cell-free assay | 10 µM | – | remaining signal | -1%
N#C[C@H](O[C@@H]1O[C@H](CO[C@@H]2O[C@H](CO)[C@@H](O)[C@H](O)[C@H]2O)[C@@H](O)[C@H](O)[C@H]1O)c1ccccc1 | enzyme activity, inhibitor, radiometric | 50 µM | – | inhibition | 10.4%
CS(C)(=O)=Nc1ccc(-c2ccc(-c3nc4cc(O[C@@H]5CO[C@H]6[C@@H]5OC[C@H]6O)[nH]c4cc3F)cc2)cc1 | enzyme activity | 10 µM | reference: control | inhibition | 35%
N[C@H](C(=O)N1CCCC1)C1CCN(c2nccc3c(-c4ncc(Cl)cc4Cl)cccc23)CC1 | enzyme activity, inhibitor | 10 µM | – | inhibition | -3%
Cc1cc(Nc2nc(C[C@@]3(C(=O)O)CCN(Cc4cccc(Cl)c4F)[C@H](C)C3)cc(C)c2F)[nH]n1 | enzyme activity, inhibitor | 10 µM | – | inhibition | -10.9%
COc1c(/C=C/C(=O)c2ccc(O)cc2)ccc(O)c1O | enzyme activity, inhibitor, radiometric | 50 µM | – | inhibition | 87.1%
CCOC(=O)[C@](CC)(CCCSCCOCCOCCNC(=O)c1ccc(-c2c3ccc(=N)c(S(=O)(=O)O)c-3oc3c(S(=O)(=O)O)c(N)ccc23)c(C(=O)O)c1)NC(=O)c1ccc(C2CC2)c(Cc2ccc(F)cc2)n1 | enzyme activity, inhibitor | 10 µM | – | inhibition | 32%
CCN(CC)CCOc1ccc(-c2nnn(Cc3ccc(OC)cc3)c2N)cc1 | enzyme activity | 10 µM | – | inhibition | 38.5%
O=C(O)c1ccc(-c2nc(-c3ccccc3Cl)c3sccn23)cc1 | radioligand binding, safety screen panel | 10 µM | reference: control | specific binding | 85.8% and 80.8%
Cc1cc(O)c(C(=O)CCC(C)C)c(=O)o1 | enzyme activity, inhibitor, radiometric | 50 µM | – | inhibition | 13.5%
C[C@@H]1COCCN1c1nc(NCc2cccnc2C(F)(F)F)c2cccnc2n1 | binding | CEREP panel | – | IC50 | 9.24 µM
CC(C)=CCc1c(O)ccc(-c2coc3cc(O)cc(O)c3c2=O)c1O | enzyme activity, inhibitor, radiometric | 50 µM | – | inhibition | 96.8%
Cc1cc(-c2ccc3ccccc3c2)nnc1NCCN1CCN(C)CC1 | enzyme activity | concentration not given | – | inhibition | negative

Repeated from above:
Compound | assay | setting | scale | endpoint | value
C[C@@H]1COCCN1c1nc(NCc2cccnc2C(F)(F)F)c2cccnc2n1 | binding | CEREP panel | – | IC50 | 9.24 µM
